# Published values pooled from the literature.
# Protocols differ between the studies behind these lines.
# Read-out: metabolic stability
Structure (SMILES),species,sample,tested at,measurement,result
O=C(CN1C(=O)C2(CCN(C(=O)c3ccc4[nH]ncc4n3)CC2)c2c(Br)cccc21)NCC(F)(F)F,mouse,liver microsomes,,microsomal CLint,10 µL/min/mg
CCc1nnc(-c2c(OC)cc(-c3cnc4cc(-c5cnn(C)c5)ccn34)cc2OC)o1,mouse,liver microsomes,,microsomal CLint,< 9.6 µL/min/mg
CN(C)CCCNC(=O)C[C@H](Cc1ccc(F)cc1)NC(=O)[C@@H](Cc1ccc(Cl)cc1Cl)NC(=O)[C@H](N)Cc1ccccc1C#N,CD-1 mouse,liver microsomes,1 µM,microsomal CLint,17 µL/min/mg
NC1CCN(C(=O)Oc2ccc(C3CCCC4(C3)OOC3(O4)C4CC5CC(C4)CC3C5)cc2)CC1 (racemic),mouse,liver microsomes,,microsomal CLint,14.1 µL/min/mg
O=C(CN1CN(c2ccccc2)C2(CCN(C(=O)c3cnc4[nH]ncc4c3)CC2)C1=O)NCC(F)(F)F,mouse,liver microsomes,,microsomal CLint,97 µL/min/mg
C[C@@H]1COCCN1c1nc(NCc2cccnc2C(F)(F)F)c2cccnc2n1,mouse,hepatocytes,,hepatocyte CLint,8.8 µL/min/10⁶ cells
C#CCCCNC(=O)CC(Cc1ccc(F)cc1)NC(=O)C(Cc1ccc(Cl)cc1Cl)NC(=O)C(N)Cc1ccccc1C#N (centres unmarked),CD-1 mouse,liver microsomes,1 µM,microsomal CLint,63 µL/min/mg
COc1cc2c(cc1NC(=O)c1cncn1C)C[C@H]1[C@H]3CCCC[C@@]23CCN1C,mouse,liver microsomes,,microsomal CLint,48.3 µL/min/mg

# For quick reference, copied from above:
Structure (SMILES),species,sample,tested at,measurement,result
C[C@@H]1COCCN1c1nc(NCc2cccnc2C(F)(F)F)c2cccnc2n1,mouse,hepatocytes,,hepatocyte CLint,8.8 µL/min/10⁶ cells
